# Results of several laboratories.
# A part holds a random share of what one study measured.
# Sequence of UniProt P15735 (whole entry, looked up): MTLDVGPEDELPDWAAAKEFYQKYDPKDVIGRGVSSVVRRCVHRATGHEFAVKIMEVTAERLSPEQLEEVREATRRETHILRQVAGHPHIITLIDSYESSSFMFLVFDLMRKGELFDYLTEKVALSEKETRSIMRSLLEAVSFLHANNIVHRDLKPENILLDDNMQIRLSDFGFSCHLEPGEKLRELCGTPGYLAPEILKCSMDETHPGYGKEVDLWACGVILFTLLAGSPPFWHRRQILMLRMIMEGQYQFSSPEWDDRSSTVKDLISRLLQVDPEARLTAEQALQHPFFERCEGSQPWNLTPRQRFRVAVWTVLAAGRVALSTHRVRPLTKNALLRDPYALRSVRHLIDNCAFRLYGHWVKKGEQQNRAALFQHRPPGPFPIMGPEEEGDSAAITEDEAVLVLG
# Sequence of UniProt Q9H093 (whole entry, looked up): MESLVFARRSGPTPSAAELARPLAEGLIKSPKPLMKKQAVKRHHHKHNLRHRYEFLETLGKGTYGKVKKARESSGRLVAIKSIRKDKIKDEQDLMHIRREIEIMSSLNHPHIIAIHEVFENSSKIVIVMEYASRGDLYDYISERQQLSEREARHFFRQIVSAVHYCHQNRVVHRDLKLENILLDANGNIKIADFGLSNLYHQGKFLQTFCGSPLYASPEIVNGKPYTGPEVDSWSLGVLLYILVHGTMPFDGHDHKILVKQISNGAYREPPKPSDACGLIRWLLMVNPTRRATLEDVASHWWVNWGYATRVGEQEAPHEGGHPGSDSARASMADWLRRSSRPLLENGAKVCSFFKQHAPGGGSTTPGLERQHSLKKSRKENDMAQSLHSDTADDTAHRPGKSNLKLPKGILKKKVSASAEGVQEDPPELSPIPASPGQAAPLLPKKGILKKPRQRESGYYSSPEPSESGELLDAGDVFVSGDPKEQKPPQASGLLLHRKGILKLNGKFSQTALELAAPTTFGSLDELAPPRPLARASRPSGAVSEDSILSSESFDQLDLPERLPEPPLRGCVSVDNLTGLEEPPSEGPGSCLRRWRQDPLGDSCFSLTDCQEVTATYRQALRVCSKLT
# Sequence of UniProt P35590 (whole entry, looked up): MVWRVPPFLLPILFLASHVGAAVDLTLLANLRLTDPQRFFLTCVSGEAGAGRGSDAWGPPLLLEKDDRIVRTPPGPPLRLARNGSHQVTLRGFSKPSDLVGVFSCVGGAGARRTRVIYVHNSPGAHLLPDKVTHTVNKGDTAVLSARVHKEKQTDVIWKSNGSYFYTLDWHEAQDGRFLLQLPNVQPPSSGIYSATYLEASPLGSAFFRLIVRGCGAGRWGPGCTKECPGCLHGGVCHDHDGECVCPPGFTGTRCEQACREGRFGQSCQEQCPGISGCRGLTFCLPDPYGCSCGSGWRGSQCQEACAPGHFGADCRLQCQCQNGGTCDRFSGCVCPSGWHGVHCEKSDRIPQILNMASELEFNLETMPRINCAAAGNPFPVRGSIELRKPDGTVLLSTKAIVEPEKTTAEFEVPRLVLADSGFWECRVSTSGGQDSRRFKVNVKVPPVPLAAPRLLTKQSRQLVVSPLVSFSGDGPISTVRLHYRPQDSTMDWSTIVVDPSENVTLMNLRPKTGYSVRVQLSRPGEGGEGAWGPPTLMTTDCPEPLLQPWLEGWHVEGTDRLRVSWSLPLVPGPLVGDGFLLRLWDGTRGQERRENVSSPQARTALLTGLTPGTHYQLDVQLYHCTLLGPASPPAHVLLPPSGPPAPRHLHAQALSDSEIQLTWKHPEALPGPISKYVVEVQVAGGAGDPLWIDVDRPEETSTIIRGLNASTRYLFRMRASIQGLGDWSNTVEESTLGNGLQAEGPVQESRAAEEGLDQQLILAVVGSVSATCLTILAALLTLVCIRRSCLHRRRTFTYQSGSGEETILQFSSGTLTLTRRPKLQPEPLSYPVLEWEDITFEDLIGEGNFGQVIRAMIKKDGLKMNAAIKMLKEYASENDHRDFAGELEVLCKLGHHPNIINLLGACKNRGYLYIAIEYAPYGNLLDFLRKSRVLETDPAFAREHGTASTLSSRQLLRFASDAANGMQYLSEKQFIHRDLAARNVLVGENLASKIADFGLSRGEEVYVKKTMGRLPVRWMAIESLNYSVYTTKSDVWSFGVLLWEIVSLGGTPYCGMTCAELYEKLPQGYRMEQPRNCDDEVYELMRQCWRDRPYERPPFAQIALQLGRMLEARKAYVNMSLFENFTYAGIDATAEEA
# Sequence of UniProt P46734 (whole entry, looked up): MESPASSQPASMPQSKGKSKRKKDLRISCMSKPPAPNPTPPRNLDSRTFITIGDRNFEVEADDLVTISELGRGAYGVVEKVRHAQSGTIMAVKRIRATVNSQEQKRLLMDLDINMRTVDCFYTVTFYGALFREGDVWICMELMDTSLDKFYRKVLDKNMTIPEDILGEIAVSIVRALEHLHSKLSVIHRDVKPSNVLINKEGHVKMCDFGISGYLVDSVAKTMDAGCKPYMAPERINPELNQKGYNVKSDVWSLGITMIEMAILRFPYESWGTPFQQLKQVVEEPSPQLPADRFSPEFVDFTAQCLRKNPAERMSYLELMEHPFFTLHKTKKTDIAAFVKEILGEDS

# Sample 1
# Organism: Sarcocystis neurona
# Observed: parasite activity
# Tested at: 10 µM
# Time: 96 h
SMILES,activity class
COc1ccc2c3c1O[C@H]1C[C@@H](O)C=C[C@@]31CCN(C)C2,inactive
O=C1Nc2ccc(Cl)cc2[C@@](C#CC2CC2)(C(F)(F)F)O1,inactive
NC(=O)N1c2ccccc2C=Cc2ccccc21,inactive
O=C1c2c(O)cc(O)cc2OC(c2ccc(O)c(O)c2)C1O (centres unmarked),inactive
O=[N+]([O-])c1cccc2cn[nH]c12,inactive
Cc1cc(NS(=O)(=O)c2ccc(N)cc2)no1,inactive

# Sample 2
# Host: mouse
# Medium: microsomes or S9
# Tested at: 2 µM
# Time: 0.5 h
SMILES,remaining compound
Cc1nnc(-c2nnc(N3CCN(C4CCCCC4)CC3)c3ccccc23)o1,48.7%
CC(C)CCC1CCN(C(=O)C2CC(O)CN2)CC1 (centres unmarked),86.9%
O=C(O)c1cc2ccc(Cl)c(Cl)c2[nH]c1=O,54.5%
Cc1noc(/C=C/c2ccccc2F)c1S(=O)(=O)N1CCC(C(=O)Nc2ccc(S(N)(=O)=O)cc2)CC1,63.8%
COCc1cccc(C(=O)OCC(=O)c2ccc(CCCNC(C)=O)cc2)c1,1.11%
COC(=O)c1cc(NC(=O)CC2NCCNC2=O)cc(C(=O)OC)c1 (centres unmarked),82.5%

# Sample 3
# Target: Serine/threonine-protein kinase TAO2 (TAOK2, Homo sapiens, UniProt Q9UL54)
# Sequence of UniProt Q9UL54 (whole entry, looked up): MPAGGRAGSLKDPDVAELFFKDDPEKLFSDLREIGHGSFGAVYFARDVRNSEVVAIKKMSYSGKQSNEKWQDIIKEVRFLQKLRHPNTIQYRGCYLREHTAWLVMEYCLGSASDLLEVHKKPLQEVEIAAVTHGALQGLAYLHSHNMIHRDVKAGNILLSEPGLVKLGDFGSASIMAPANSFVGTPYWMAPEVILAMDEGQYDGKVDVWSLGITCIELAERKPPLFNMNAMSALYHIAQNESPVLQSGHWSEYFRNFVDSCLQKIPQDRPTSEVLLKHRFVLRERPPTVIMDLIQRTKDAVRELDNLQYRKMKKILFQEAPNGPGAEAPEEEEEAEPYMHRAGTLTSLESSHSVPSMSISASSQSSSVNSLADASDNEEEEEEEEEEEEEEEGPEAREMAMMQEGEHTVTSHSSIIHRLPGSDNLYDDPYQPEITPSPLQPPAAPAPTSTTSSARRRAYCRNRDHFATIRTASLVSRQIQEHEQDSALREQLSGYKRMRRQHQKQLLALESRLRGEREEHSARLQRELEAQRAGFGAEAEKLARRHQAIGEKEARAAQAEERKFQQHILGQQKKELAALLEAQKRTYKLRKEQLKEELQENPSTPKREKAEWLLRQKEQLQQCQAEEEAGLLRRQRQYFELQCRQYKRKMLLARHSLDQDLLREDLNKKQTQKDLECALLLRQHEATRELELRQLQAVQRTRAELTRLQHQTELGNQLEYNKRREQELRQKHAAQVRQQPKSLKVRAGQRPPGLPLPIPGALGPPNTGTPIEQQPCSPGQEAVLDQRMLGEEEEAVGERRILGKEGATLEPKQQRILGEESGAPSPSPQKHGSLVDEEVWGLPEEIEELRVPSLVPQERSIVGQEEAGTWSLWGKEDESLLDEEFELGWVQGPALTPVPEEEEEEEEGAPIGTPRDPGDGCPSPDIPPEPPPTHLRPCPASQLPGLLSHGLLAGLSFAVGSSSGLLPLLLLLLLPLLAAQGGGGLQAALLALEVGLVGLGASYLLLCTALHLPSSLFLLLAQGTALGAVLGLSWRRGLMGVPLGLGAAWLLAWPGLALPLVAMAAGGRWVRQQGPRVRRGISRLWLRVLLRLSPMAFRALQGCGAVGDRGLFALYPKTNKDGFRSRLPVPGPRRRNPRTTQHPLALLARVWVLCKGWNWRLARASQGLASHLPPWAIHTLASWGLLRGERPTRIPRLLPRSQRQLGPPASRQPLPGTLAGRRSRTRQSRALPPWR
# Observed: enzyme activity
# Action: inhibitor
# Tested at: 0.5 µM
# Baseline: control
Compound,remaining activity [%]
Cc1ccc(Nc2nccc(N(C)c3ccc4c(C)n(C)nc4c3)n2)cc1S(N)(=O)=O,26.8
C#Cc1cccc(Nc2ncnc3cc(OCCOC)c(OCCOC)cc23)c1,106
Cn1sc(=O)n(Cc2ccccc2)c1=O,91
CNC(=O)c1cc(Oc2ccc(NC(=O)Nc3ccc(Cl)c(C(F)(F)F)c3)cc2)ccn1,36.9
Nc1[nH]nc2nc3ccccc3nc12,103
CO[C@H]1C[C@@H]2CC[C@@H](C)[C@@](O)(O2)C(=O)C(=O)N2CCCC[C@H]2C(=O)O[C@H]([C@H](C)C[C@@H]2CC[C@@H](O)[C@H](OC)C2)CC(=O)[C@H](C)/C=C(\C)[C@@H](O)[C@@H](OC)C(=O)[C@H](C)C[C@H](C)/C=C/C=C/C=C/1C,97.6
COc1ccc(OC)c2c(=S)c3ccccc3[nH]c12,100
O=C1NC(=O)c2cc(Nc3ccc(F)cc3)c(Nc3ccc(F)cc3)cc21,94.7
O=C1NC(=O)C(c2cn(CCCn3ccnc3)c3ccccc23)=C1Nc1ccccc1,92.3
O=S(=O)(c1cccc2cnccc12)N1CCCNCC1,87.3
COc1ccc(C(=O)Nc2sc3c(c2C(N)=O)CCCC3)cc1OC,97
CCOC(=O)c1c(C)[nH]c(/C=C2\C(=O)Nc3ccccc32)c1C,105
COc1ccc(CNC(=O)Nc2ncc([N+](=O)[O-])s2)cc1,98.5
O=C(O)c1ccc2c3c1cccc3c(=O)n1c3ccccc3nc21,95.2
OCC(O)CCON=C1C(c2c(O)[nH]c3ccccc23)=Nc2ccccc21 (centres unmarked),83.4
N#CCCc1ccc2c(c1)-c1[nH]c3ccc([N+](=O)[O-])cc3c1CC(=O)N2,86.4
Cn1c2ccccc2c2c3c(c4c5ccccc5n(CCC#N)c4c21)CNC3=O,13.3

# Sample 4
# Compound: CC(=O)Nc1c(C(C)=O)c(=O)n(C)c2nc(-c3ccc(Cl)cc3Cl)c(-c3ccc(Cl)cc3)cc12
# Method: competition with immobilised ligand
# Tested at: 1 µM
target,observed,remaining binding [%]
"Dual specificity tyrosine-phosphorylation-regulated kinase 1B (DYRK1B, Homo sapiens, UniProt Q9Y463)",binding,35
"Tyrosine-protein kinase ABL1, non-phosphorylated (ABL1, Homo sapiens, UniProt P00519, Q252H)",cell-free assay,100
"Tyrosine-protein kinase receptor Tie-1 (TIE1, Homo sapiens, UniProt P35590)",cell-free assay,100
"Phosphorylase b kinase gamma catalytic chain, liver/testis isoform (PHKG2, Homo sapiens, UniProt P15735)",cell-free assay,100
"NUAK family SNF1-like kinase 2 (NUAK2, Homo sapiens, UniProt Q9H093)",cell-free assay,100
"Dual specificity mitogen-activated protein kinase kinase 3 (MAP2K3, Homo sapiens, UniProt P46734)",cell-free assay,86

# Repeated from above (sample 3):
Compound,remaining activity [%]
Cn1sc(=O)n(Cc2ccccc2)c1=O,91
CNC(=O)c1cc(Oc2ccc(NC(=O)Nc3ccc(Cl)c(C(F)(F)F)c3)cc2)ccn1,36.9
Nc1[nH]nc2nc3ccccc3nc12,103
CO[C@H]1C[C@@H]2CC[C@@H](C)[C@@](O)(O2)C(=O)C(=O)N2CCCC[C@H]2C(=O)O[C@H]([C@H](C)C[C@@H]2CC[C@@H](O)[C@H](OC)C2)CC(=O)[C@H](C)/C=C(\C)[C@@H](O)[C@@H](OC)C(=O)[C@H](C)C[C@H](C)/C=C/C=C/C=C/1C,97.6
